Measured values of several laboratories.
Several values in a cell are separate wells, animals, samples, runs or records. ± gives the spread as reported. ≈ marks a conversion by molar mass, not a printed value.

C=C(NC(=O)c1csc(-c2nc3c(cc2O)-c2nc(cs2)C(=O)NC(C(C)O)C(=O)NC(=C(C)OC)c2nc(cs2)C(=O)NC2c4nc(cs4)C(=O)NC(COC(=O)c4c5c6c(cccc6n4O)COC(=O)C(OC4CC(C)(O)C(N(C)C)C(C)O4)C2OC5)c2nc-3cs2)n1)C(N)=O (stereo not drawn) — half-life (ICR mice, Streptococcus pneumoniae ATCC 49169 infected, immunocompromised, blood; intravenous, 8 mg/kg/day three times daily): 2.22 h
CC(C)[C@H](NC(=O)[C@H](Cc1c[nH]c2ccccc12)NC(=O)[C@H](CCCNC(=N)N)NC(=O)[C@H](CCCNC(=N)N)NC(=O)[C@@H](NC(=O)[C@@H](NC(=O)[C@H](CCCNC(=N)N)NC(=O)[C@@H](NC(=O)[C@@H](NC(=O)[C@H](CCCNC(=N)N)NC(=O)[C@H](CCCNC(=N)N)NC(=O)[C@@H](NC(=O)[C@H](Cc1c[nH]c2ccccc12)NC(=O)[C@H](CCCNC(=N)N)NC(=O)[C@H](CCCNC(=N)N)NC(=O)[C@@H](NC(=O)[C@H](CCCNC(=N)N)NC(=O)[C@H](CCCNC(=N)N)NC(=O)[C@@H](NC(=O)[C@H](Cc1c[nH]c2ccccc12)NC(=O)[C@H](CCCNC(=N)N)NC(=O)[C@@H](N)CCCNC(=N)N)C(C)C)C(C)C)C(C)C)C(C)C)C(C)C)C(C)C)C(C)C)C(=O)N[C@@H](CCCNC(=N)N)C(=O)N[C@@H](CCCNC(=N)N)C(=O)O — protein (dipstick; CD1 mouse, urine; intravenous, 15 mg/kg, 16 h, [14C]-labelled compound): 30 mg/dL
COCC1CN(C2CCN(c3cc(OC)c(Nc4ncc(Br)c(Nc5ccc6c(c5P(C)(C)=O)OCCO6)n4)cc3C)CC2)C1 — adverse events (first-in-human trial; human; oral, 150 mg once daily; treatment-related leading to dose reduction): 0%
COc1ccc(Nc2nc(Nc3ccc(OCCOCC[18F])cc3)ncc2Br)cc1 — blood uptake (ICR mouse, S180 tumour, blood; intravenous, 30 min, blocking, with: PF-562271 33 mg/kg oral one h before): 2.86 ± 0.31 %ID/g
O=C(Nc1cnccc1-c1ccc([18F])cc1)c1ccnc(NC(=O)C2CC2)c1 — mean SUV (ex vivo gamma counting; GSK-3β transgenic mice, early-stage, adipose tissue; intravenous, 120 min): 0.07
C[C@]12COc3ccc(Oc4ccccc4)cc3[C@H]1CCN2 — recovery (lipid PAMPA; artificial lipid membrane; 10 µM, 16 h): 2.7%
[123I]c1ccc2nc(-c3ccc(-n4ccnn4)nc3)cn2c1 — tissue uptake (Wistar rat, male, red marrow; intravenous, 4 MBq, 6 h): 0.075 ± 0.024 %ID/g
O=C1CCC(N2Cc3cc(C(=O)O)c(F)cc3C2=O)C(=O)N1 (stereo not drawn) — plasma concentration (cynomolgus monkey, male; oral, 0.3 mg/kg parent drug, 12 h): 0.35 ± 0.1 ng/mL
CCCCN1C(=O)c2cccc3c(NCCCCCCN4CCOCC4)ccc(c23)C1=O — molar extinction coefficient (water; pH 6.0): 13100 M⁻¹ cm⁻¹
C/C(N)=N/C(=N\S(=O)(=O)c1ccc(C(F)(F)F)cc1)N1C[C@H](c2ccccc2)C(c2ccc(Cl)cc2)=N1 — Cmax (male C57BL/6 mouse, lung; oral, 10 mg/kg): 6730 ng/mL
Cc1[nH]c(=O)c(CNC(=O)c2cc(Cl)c3c(c2C)O[C@@](C)([C@H]2CC[C@H](N(C)C)CC2)O3)c(C)c1O — urinary excretion (radiochromatography; human, urine; oral, 200 mg; reference: dose): 1.1% and 0.7% and 0.6% and 0.8%
CCC1C=C(C)C(O)C(C)CC(OC)C2OC(O)(C(=O)C(=O)N3CCCCC3C(=O)OC(C(C)=CC3CCC(O)C(OC)C3)C(C)C(O)CC1=O)C(C)CC2OC (stereo not drawn) — blood concentration (mouse C57BL/6; topical, dose not given, 6 h): not detected
O=C([O-])CN1CCN(CC(=O)O)CCN(CC(=O)[O-])CCN(CC(=O)O)CC1.[64Cu+2] — blood distribution half-life (dynamic micro-PET imaging; rat, chronic myocardial infarction, blood; intravenous): 2.5 ± 0.4 min
CN1CCC[C@]1(C)/C=C/S(=O)(=O)NC(=O)Nc1c2c(cc3c1CCC3O)CCC2 (stereo partly drawn) — AUC(0-t) (human, plasma; oral, 50 mg twice daily of parent drug, day 14, metabolite of dosed drug): 925000 ng·h/mL
O=C(NS(=O)(=O)c1cccs1)c1cc2ccccc2n1Cc1ccc(Br)c2ccccc12 — AUC(0-inf) (Sprague-Dawley rat, male, plasma; oral, 20 mg/kg): 11300 ng·h/mL
C(=N\Nc1nnc(N/N=C/c2ccco2)c2ccccc12)/c1ccco1 — haemolysis (haemolysis; human; 10 mM, 45 min): 12.3%
CCCCCCCOc1ccc(CC[C@](N)(CO)COP(=O)(O)O)cc1C(F)(F)F — urinary excretion (0-24 h) (healthy men, urine; oral, 0.125 mg once daily, day 1, fed state; reference: dose): 0%
N[C@@H](CNC(=O)N[C@@H](CS)C(=O)NCC(=O)O)C(=O)O — brain-to-plasma AUC ratio (C57BL/6 mouse; intranasal, dose not given): 25.7 ± 5.88
CCCCN1C(=O)c2cccc3c(NCCCCN4CCOCC4)ccc(c23)C1=O — molar extinction coefficient (ethylene glycol): 8800 M⁻¹ cm⁻¹
CC(C)(C)NCC(SS(=O)(=O)O)c1ccccc1 (stereo not drawn) — body weight (Swiss Webster mice, Schistosoma mansoni-infected; 100 mg/kg x 4 doses from day 42 post-infection, perfusion day 56 post-infection): 33 g
CCCC[C@H](OC(C)=O)c1ccccc1C(=O)O — AUC(0-inf) (beagle dog, both sexes, whole blood; intravenous, 1.5 mg/kg, day 7): 1900 ng·h/mL
CN(O)C(=O)CCC(=O)NCCCN(CCCCN(CCCNC(=O)CCC(=O)N(C)O)C(=O)CCC(=O)N(C)O)C(=O)CCC(=O)N(C)O.[89Zr] — intact compound (PBS; 5 days, pH 7, 37 °C): 98 ± 1.7%
CCC(CC)n1c(Cc2cccs2)nc2cc(C(=O)N[C@@H](CC(=O)O)c3ccccc3)ccc21 — cardiac function (echocardiography, measured: LVEF, FS; mouse; dose not given, 2 wk): no effect
O=C(O)c1c(O)cc(O[C@@H]2O[C@H](CO)[C@@H](O)[C@H](O)[C@H]2O)cc1/C=C/c1ccccc1 — AUC(0-inf) (Sprague-Dawley rat, plasma; oral, 5.0 mg/kg): 90.7 ± 15.6 ng·h/mL
CCc1cnc(NC(=O)c2cc(S(=O)(=O)N3CCOCC3)ccc2N(C)C2CCCC2)s1 — mean corpuscular haemoglobin concentration (mouse; 10 mg/kg, 3 doses): 29.3 g/dL
Cc1cc(-c2ccc(C(=O)[C@@H]3CCCC[C@H]3C(=O)Nc3cnn4c3C(=O)NCC4)cc2)[nH]n1 — recovery of radioactivity per interval (human, faeces; oral, 200 mg, 264-288 h, discharged subjects excluded; reference: dose): 0.31%
C=CC(=O)Nc1cc(Nc2nccc(-c3c[nH]c4ccccc34)n2)c(OC)cc1N(C)CCN(C)C — recovery (storage stability; human plasma; 5 h, on ice, low QC level): 96.8%
CC[C@H](C)[C@H](NC(=O)[C@H](Cc1ccc(O)cc1)NC(=O)[C@@H](NC(=O)[C@H](CCCNC(=N)N)NC(=O)[C@@H](N)CC(=O)O)C(C)C)C(=O)N[C@@H](Cc1c[nH]cn1)C(=O)N1CCC[C@H]1C(=O)O — Cmax (LC-MS/MS; Sprague-Dawley rats, both sexes, plasma; subcutaneous, 10 mg/kg/day, day 0): 25.6 ng/mL
Brc1cccc(CNc2nc(NCc3ccccc3)c3ccccc3n2)c1 — solubility (aqueous buffer; pH 6.2): 0.25 µg/mL (≈ 0.596 µM)
CCCCN1C(=O)c2cccc3c(NCCCCCN4CCOCC4)ccc(c23)C1=O — molar extinction coefficient (dioxane): 5600 M⁻¹ cm⁻¹
CCC(C(=O)Nc1ccc(C(N)=O)c(F)c1)n1cc(OC)c(-c2cc(Cl)ccc2-n2cc(C(F)(F)F)nn2)cc1=O (stereo not drawn) — mild adverse events (healthy male humans; 50 mg, maximum intensity): 28.6%
COc1cccc(OC)c1-c1cc(C(=O)NC2(C(=O)O)C3CC4CC(C3)CC2C4)nn1-c1ccc(C(=O)N(C)CCCN(C)C(=O)[C@H](CCCCNC(=O)[C@H](CC(C)C)NC(=O)C2OC2C(=O)O)NC(=O)CN2CCN(CC(=O)[O-])CCN(CC(=O)[O-])CCN(CC(=O)[O-])CC2)cc1C(C)C.[177Lu+3] (mixture of isomers) — tumour-to-brain ratio (mouse, HT-29 xenograft; 168 h post injection, biodistribution; reference: tumour over brain uptake): 45.1
C=C[C@]1(C)C[C@@H](OC(=O)CSc2ccc(NC(=O)c3ccco3)cc2)[C@]2(C)[C@H](C)CC[C@]3(CCC(=O)[C@H]32)[C@@H](C)[C@@H]1O — plasma concentration (Mycoplasma gallisepticum-infected chickens, plasma; intramuscular, 5 mg/kg, 3 h): 176 ng/mL and 151 ng/mL and 172 ng/mL and 128 ng/mL and 129 ng/mL and 159 ng/mL and 170 ng/mL and 140 ng/mL
CC(=O)N([O-])CCCCCNC(=O)CCC(=O)N([O-])CCCCCNC(=O)CCC(=O)N([O-])CCCCCN.[89Zr+4] — intact complex (radio-TLC; aqueous buffer; 5 d, pH 7, 37 °C, 89Zr-labelled complex, with: DTPA 1000-fold excess): 72 ± 2.9%
CCC1=[N+]2N=C(/C=C/C=C/c3ccccc3)C(=O)O[B-]2(c2ccccc2)Oc2cc(N(CC)CC)ccc21 (stereo not drawn) — molar absorption coefficient (toluene): 60000 M⁻¹ cm⁻¹
CCCCN1C(=O)c2cccc3c(NCCCN4CCOCC4)ccc(c23)C1=O — molar extinction coefficient (DMF): 4900 M⁻¹ cm⁻¹
CSCC[C@H](N)C(=O)N[C@@H](CO)C(=O)N[C@H](C(=O)N[C@@H](C)C(=O)NCC(=O)N[C@@H](CC(C)C)C(=O)N[C@@H](CCCCN)C(=O)N[C@@H](CCCCN)C(=O)N[C@@H](CCC(N)=O)C(=O)N[C@@H](Cc1c[nH]c2ccccc12)C(=O)N[C@@H](Cc1c[nH]cn1)C(=O)N[C@@H](CCCCN)C(=O)N[C@@H](C)C(=O)N[C@H](C(=O)N[C@@H](CCC(N)=O)C(=O)N[C@@H](CCCCN)C(=O)N[C@H](C(=O)N[C@@H](CO)C(=O)N[C@@H](CCC(=O)O)C(=O)N[C@@H](CCCCN)C(=O)N[C@H](C(=O)NCC(=O)NCC(=O)N[C@@H](C)C(N)=O)C(C)C)C(C)C)[C@@H](C)O)C(C)C — fractional helicity (circular dichroism; ~60% TFE): 63.8%
COCCN(C)CC(=O)NC(Cc1ccc(-c2ccccc2)cc1)B(O)O (stereo not drawn) — oral bioavailability (male Sprague-Dawley rats; oral, 1 mg/kg): 113%
CCCCN1C(=O)c2cccc3c(NCCN4CCOCC4)ccc(c23)C1=O — molar extinction coefficient (EG): 6970 M⁻¹ cm⁻¹
